Measurements pooled from the literature.
A part holds a random share of what one study measured. Substitutions count along the parent as printed.

Block 1
Target: ATF2, bZIP domain (human)
Technique: DHFR protein complementation
Sample: yeast
Setting: single substitutions, most at no-binding floor
Relative to: wild-type JUN-FOS pair
Direction: higher = stronger binding
Parent: JUN, bZIP domain (human); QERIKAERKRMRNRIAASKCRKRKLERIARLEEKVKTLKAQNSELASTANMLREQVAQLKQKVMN; partner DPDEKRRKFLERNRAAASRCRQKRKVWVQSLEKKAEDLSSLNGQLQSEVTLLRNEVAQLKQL
| Variant | binding fitness |
| --- | --- |
| M51K | -1.39 natural log |
| S47W | -1.27 natural log |
| A57T | -1.38 natural log |
| L52C | -1.5 natural log |
| K36S | -1.32 natural log |
| E54K | -1.47 natural log |
| R30E | -1.29 natural log |
| V35N | -1.42 natural log |
| I28D | -1.31 natural log |
| E32W | -1.33 natural log |
| I28Y | -1.36 natural log |
| K34G | -1.43 natural log |
| L52W | -1.61 natural log |
| R30C | -1.4 natural log |
| S43A | -1.23 natural log |
| K34T | -1.31 natural log |
| T48P | -1.47 natural log |
| R53I | -1.52 natural log |
| A46S | -1.42 natural log |
| T37F | -1.61 natural log |
| T37S | -1.19 natural log |
| R53S | -1.41 natural log |

Block 2
Target: RNA binding protein fox-1 homolog 2, RRM domain, GST-SBP tag (RBFOX2, Homo sapiens, UniProt O43251-10, residues 100-194)
Technique: RNA Bind-n-Seq
Molecule type: RNA
Sample: in vitro
Concentration: 365 nM
Setting: natural RNA segment, single round, ends assumed
Relative to: no-protein control
Direction: higher = stronger binding
Constant ends, left off below: GGGAGUUCUACAGUCCGACGAUC … UGGAAUUCUCGGGUGCCAA
Construct (chain): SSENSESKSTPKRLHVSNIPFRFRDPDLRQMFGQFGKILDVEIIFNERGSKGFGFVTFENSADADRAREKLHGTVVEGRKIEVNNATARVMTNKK
| Oligonucleotide | RBNS enrichment (R) |
| --- | --- |
| UGCUACCAAUGCAGAUAAACGCGGCUUGUUUUACUCAGGCAAGAGAAUGUGAAUAGUGCCAAGAAAAUCCUUUACAUUAUUUAAUAAAAAUUGAAUCCAUUUUCUAUCUU | 0.254 |
| ACUUUGCAAGGAGUCCAUUCAUGAGGGUGCUAUCACUCACACCUUCUGUGGCACCAUUGAGUACAGGGCCCCAGAGAUUCUAGUGCGCACUGGUCACAACCGGGCAGUGG | 0.4 |
| CACUAUUCUGAGGGAAAAUCUGACACCUAAGAAAUUUACUGUGAAAAAGCAUUUUAAAAAGAAAAGGUUUUAGAAUAUGAUCUAUUUUAUGCAUAUUGUUUAUAAAGACA | 0.378 |
| AACUUAAGAAGAAAGCUUCCCUCUUCUGACAUCCCUGCCGGCUCGGCUCGAUUCGGCUCGCCCUGUCCGUGACAGUACCUUCCUUCUGCUGCUUCGAGGCCCUGAAGCUG | 0.274 |
| CAGGCUUUUGGAGAAAAAGGACCCAAGUGACACUGAUGUUUACAAAGUACCUAUAAAACCCUGUACACACCUAGUUCAUAUUCCUCAUAAUUUAUCAACAAACACAAAAA | 0.369 |
| CUCUCAAAUCCCUCUCCAACUGCCUAAGGCCCUUUGUGUAAGGUGUCUUAAUACUGUCCUUUUUUUUUUUUUAACAGUGUUUUGUAGAUUUCAGAUGACUAUGCAGAGGC | 0.814 |
| UCCCUCCCAGCCUGGUGCUGGUGAUGGGCCCUGGCCCUACUCCAGGGCCAAUGCACCCCCGCCUCACACACGCACUCCUUCUCCUCAAGGCCAGGGCAGAGGGCCUCACC | 0.689 |
| UUGCCUAUUGAUGUUCCUUUGGGUCUGUGAGGUUCUGUAAACUGUGCUAGUGCUGACGAUGUUCUGUACAACUUAACUCACUGGCGAGAAUACAGCGUGGGACCCUUCAG | 0.579 |
| UAUAUAUAUGAUAUAUAUAUAUAUAUAAGUUCUUUUUUAGCUGUACCUACGUACUUAUAUCAGCACCAUGUAUGUAGGUGUGAUAGUACUUUCAAACAGCGCCUCCACCU | 1.84 |
| GCAGACCCCCUAACCCUUCAGACAGGCAGUGUUUAUUUAAUGCGUAGAGUGCAGAGGGGCUCUUUUAUCCAGACCCCUCUUUGUAUCCUGGUGCCCUUGUUGACUGUCUG | 0.351 |
| GUAAUUUCAGUAUAUGUAAUGUGAUUUUAGACUGUGAAAUUUUAUCUCACAUUAAUAUCUGAAGUGCUUGUAUUAAAAGUAAAGAAAGGUAACUAAGGGAAUUUGUUUCA | 0.579 |
| GUCAGUUAAGUGACGGAUUCUGUUGUGGUUUGAAUGCAGUACCAGUGUUCUCUUCGAGCAAAGUAGACCUGGGUCACUGUAGGCAUAGGACUUGGAUUGCUUCAGAUGGU | 0.441 |

Block 3
Target: Interferon regulatory factor 5, full length, phosphomimetic (IRF5, Homo sapiens, UniProt Q13568-2, residues 1-514, S451D/S453D/S456D/S462D)
Technique: protein-binding microarray
Molecule type: double-stranded DNA, one strand shown
Sample: in vitro
Concentration: 940 nM top
Setting: 60-bp whole probe
With: salmon DNA 0.4 mg/ml
Relative to: random background probes
Direction: higher = stronger binding
Constant ends, left off below: GCCTAGCAC … GTCTTGATTCGCTTGACGCTGCTG
| Oligonucleotide | fitted relative affinity [z-score] |
| --- | --- |
| TCAGCATTCGAATTCAGACTGTGCTAG | -0.375 |
| GACGGTATCCATTTCCTGACGTGCTAG | 0.575 |
| TTAGAACAGAGACTGGATTAGTGCTAG | -0.317 |
| GACGGACGGCTTTTCCTGACGTGCTAG | -0.715 |
| GACGATTTCAGTATCGAGATGTGCTAG | 2.16 |
| CTGCAGGTAGCAGAGACTTGGTGCTAG | -0.601 |
| TTAGATTTCGGGTTTCCATTAGTGCTA | 1.81 |
| ATAAATATGAGACTGGGGATGTGCTAG | -0.0221 |
| ATATATTCATATATATATGAGTGCTAG | 0.263 |
| GACGATATCACTTTCGAGACGTGCTAG | 2.12 |
| TTACGTTCCCTTTTCCTTTAGTGCTAG | 1.74 |
| CCCTGTGTTACTTTCTACTTGTGCTAG | 0.972 |
| CTCTGCTTCTGTATGGGCATGTGCTAG | -0.0231 |
| GACCGACTGGACACTGGGGACGTGCTA | -0.168 |
| TCATATATCCATTATAGACTGTGCTAG | 0.436 |
| TGGGTTTTCAGCTGTTTTTCTGTGCTA | 0.387 |
| GACGATTTCGGGTAGCGAGACGTGCTA | 0.396 |
| TTAGGACCGGACTATCGGTTAGTGCTA | -0.305 |
| GACGGTATTGACTTTCGGGACGTGCTA | 1.3 |
| GGGCACATCTTAACATATGAGTGCTAG | -0.0274 |
| GACGGACCGGACACTGGGGACGTGCTA | -0.576 |
| TCAATAATGGATATATAACTGTGCTAG | 0.0619 |

Block 4
Target: CCND3, cyclin fold, Cln2 fusion (human)
Technique: yeast growth competition, sequencing
Sample: yeast
Setting: weak parent motif
Relative to: not given
Direction: higher = stronger binding
Parent: WEE1 docking peptide (human); HKTFRKLRLFDTP; partner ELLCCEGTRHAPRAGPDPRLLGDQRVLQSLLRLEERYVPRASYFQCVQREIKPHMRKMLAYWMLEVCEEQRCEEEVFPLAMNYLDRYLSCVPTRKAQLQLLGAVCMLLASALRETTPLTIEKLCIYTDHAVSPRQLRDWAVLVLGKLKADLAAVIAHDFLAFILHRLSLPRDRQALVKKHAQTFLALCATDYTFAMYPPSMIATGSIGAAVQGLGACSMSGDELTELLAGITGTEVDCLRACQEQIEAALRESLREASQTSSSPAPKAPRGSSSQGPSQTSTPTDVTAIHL
| Variant | normalised enrichment score |
| --- | --- |
| K6E | 0.131 |
| K6P | 0.153 |
| R8M | 0.131 |
| L7Q | 0.212 |
| H1A | 0.204 |
| F10Q | 0.0149 |
| T12G | 0.26 |
| L7F | 0.125 |
| R8Y | 0.257 |
| R5L | 0.065 |
| K2A | 0.153 |
| L7C | 0.244 |
| F4P | 0.159 |
| R5K L9F | -0.262 |
| P13Q | -0.0104 |
| R5V | 0.0718 |
| D11Y | 0.0924 |
| D11G | -0.00551 |
| T12A | 0.175 |
| T12I | 0.211 |
| H1Y | 0.0983 |
| L7W | 0.0679 |
| F4C | 0.133 |
| F4E | 0.0867 |
| F4N | 0.074 |

Block 5
Target: Sal-like protein 4, full length isoform B (SALL4, Homo sapiens, UniProt Q9UJQ4-2, residues 1-616)
Technique: universal PBM
Molecule type: double-stranded DNA, one strand shown
Sample: in vitro
Concentration: not given
Setting: 8-mer, flanks averaged, mean of replicates
Direction: higher = stronger binding
| Oligonucleotide | E-score |
| --- | --- |
| CTGCCCTC | -0.268 |
| GCAATGCA | -0.0906 |
| AGTGAACC | -0.171 |
| CAGAGCTA | -0.125 |
| CCCTCTAG | -0.131 |
| CTCAGCCC | -0.214 |
| ATACCGTA | 0.123 |
| CTACAAAC | 0.0323 |
| CCCCCTAG | -0.175 |
| GCACGGGC | -0.297 |
| AGACTAAC | -0.00818 |
| TCTCTGAA | -0.107 |
| CGCCCTAA | -0.115 |
| ACGGACGC | -0.284 |
| AAGTTGTA | 0.195 |
| GGAATGCC | -0.213 |
| GGCAGGAA | -0.093 |
| CTGCTGTC | -0.269 |
| CTAAGTGC | -0.089 |
| ATGAACAT | 0.261 |
| GACAAGCC | -0.0996 |
| AAGACCAA | 0.00188 |
| GAGAGTGC | -0.0725 |
| AAGAAGCT | 0.162 |
| GTCTAAGA | -0.136 |

Excerpt of the above (block 5):
| Oligonucleotide | E-score |
| --- | --- |
| GACAAGCC | -0.0996 |
| GTCTAAGA | -0.136 |
| GAGAGTGC | -0.0725 |
| CAGAGCTA | -0.125 |
| ATACCGTA | 0.123 |
| AAGACCAA | 0.00188 |
| CCCCCTAG | -0.175 |
